Values quoted from earlier work as cited in several papers.
± gives the spread as reported.

Molecule	cell line	assay	system	conditions	endpoint	result
C[C@]12CC[C@@H]3c4ccc(O)cc4CC[C@H]3[C@@H]1CC1(CCCC1)C2=O	HT-22	cell protection	–	added: glutamate 10 mM	EC50	9.02 µM
CC(=O)c1cccc(N[C@H]2[C@H](N)[C@@](NC(=O)N(C)C)([C@H](C)O)[C@@](C)(O)[C@@]2(O)COC(=O)c2c(C)cccc2O)c1	MOLT-4	–	–	–	GI50	< 0.1 µM
Cc1c(O)c(C23CC4CC(CC(C4)C2)C3)cc2c1CC[C@@H]1[C@@H]2CC[C@]2(C)C(=O)CC[C@@H]12	HT-22	cell protection	–	added: iodoacetic acid 40 µM	EC50	0.28 µM
Thrombospondin-1	endothelial cells	endothelial cell migration, inhibitor	–	–	effective concentration	< 20 nM
C[C@@]12CC=C3c4ccc(O)cc4CC[C@@H]3[C@H]1CC[C@H]2O	HT-22	cell protection	–	added: glutamate 10 mM	EC50	0.488 µM
COC(=O)c1ccc(CCc2cc(O)ccc2O)cc1	NCI-60 panel	cell growth	–	–	GI50	7.97 µM
C[C@]12CC[C@@H]3c4ccc(O)cc4CC[C@H]3[C@@H]1CCC2=O	HT-22	cell protection	–	added: iodoacetic acid 20 µM	EC50	2.09 µM
CSc1ccc(/C=C2/C(C)=C(CC(=O)O)c3cc(F)ccc32)cc1	cells overexpressing human APP	–	–	80 to 100 µM	Abeta42 reduction	≥ 50%
CC1(C)C=Cc2cc3ccc(=O)oc3cc2O1	neutrophils	superoxide production	–	added: fMLF	IC50	18.4 µM
C[C@]12CCC[C@@H]1[C@H]1CCc3cc(O)ccc3[C@@H]1CC2 (single isomer, unassigned)	HT-22	cell protection	–	added: glutamate 20 mM	EC50	1.17 µM
C=C1C(=O)O[C@H]2[C@H]1CC/C(C)=C/CC[C@@]1(C)O[C@@H]21	HL-60	cell growth, inhibitor	–	–	IC50	9.3 ± 3.8 µM
PACAP-27	NCI-H838	–	–	NG	phosphatidylinositol turnover	increased
CC(C)C[C@H]1NC(=O)[C@H](CC(=O)O)NC(=O)CNC(=O)[C@H](CCCNC(=N)N)NC(=O)[C@H](C)NC1=O	WM-115	cell adhesion, inhibitor	–	added: immobilized CagL RGA mutant	IC50	1.63 µM
C[C@@]12CCC[C@@](C)(C(=O)O)[C@H]1CC[C@@]13C[C@@H](CC[C@H]12)[C@@](O)(CO)C3	human neutrophils	elastase release	–	added: fMLF	IC50	12.5 µM
VVIA	differentiated PC-12	Aβ42-induced toxicity, inhibitor, MTT	peptide	10-fold excess over Aβ42, 15 h, added: Aβ42 5 µM	viability	89 ± 5%
CCCCCCCCCCCCCC(=S)NCCCCC(NC(=O)OCc1ccccc1)C(=O)Nc1ccccc1 (stereo not drawn)	HCT-116 empty vector	anchorage-independent growth	–	–	GI50	15 ± 5 µM
CC12CCC3c4ccc(O)cc4CCC3C1CCC2O (stereo not drawn)	HT-22	cell protection	–	added: glutamate 20 mM	EC50	16.2 µM
FGF-2	Schwann cells	–	–	added: 5 to 10 µM forskolin	doubling time	1 to 2 days

For quick reference, copied from above:
Molecule	cell line	assay	system	conditions	endpoint	result
C[C@@]12CCC[C@@](C)(C(=O)O)[C@H]1CC[C@@]13C[C@@H](CC[C@H]12)[C@@](O)(CO)C3	human neutrophils	elastase release	–	added: fMLF	IC50	12.5 µM
VVIA	differentiated PC-12	Aβ42-induced toxicity, inhibitor, MTT	peptide	10-fold excess over Aβ42, 15 h, added: Aβ42 5 µM	viability	89 ± 5%
CCCCCCCCCCCCCC(=S)NCCCCC(NC(=O)OCc1ccccc1)C(=O)Nc1ccccc1 (stereo not drawn)	HCT-116 empty vector	anchorage-independent growth	–	–	GI50	15 ± 5 µM
